Published values pooled from the literature.
Parts stem from different laboratories: compare values within a part only.
Sequence of UniProt O43781 (whole entry, looked up): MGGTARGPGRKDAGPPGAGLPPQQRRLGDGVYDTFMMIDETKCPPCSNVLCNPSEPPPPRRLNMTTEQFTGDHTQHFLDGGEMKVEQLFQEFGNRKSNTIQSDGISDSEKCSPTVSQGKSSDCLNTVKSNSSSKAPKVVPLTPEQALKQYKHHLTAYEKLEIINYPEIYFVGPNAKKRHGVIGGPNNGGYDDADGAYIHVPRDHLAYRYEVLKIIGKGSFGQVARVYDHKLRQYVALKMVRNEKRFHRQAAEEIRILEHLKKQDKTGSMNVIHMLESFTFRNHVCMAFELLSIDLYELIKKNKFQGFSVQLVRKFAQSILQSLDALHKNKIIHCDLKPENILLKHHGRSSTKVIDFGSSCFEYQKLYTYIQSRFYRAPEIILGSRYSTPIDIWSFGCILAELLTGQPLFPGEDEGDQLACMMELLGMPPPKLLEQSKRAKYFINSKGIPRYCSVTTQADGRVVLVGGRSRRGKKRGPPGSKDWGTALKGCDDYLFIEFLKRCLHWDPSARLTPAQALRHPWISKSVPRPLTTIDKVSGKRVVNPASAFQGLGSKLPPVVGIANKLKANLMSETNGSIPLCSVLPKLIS

Block 1 — method: RNAcompete; molecule type: RNA; matrix: in vitro; tested at: 20 nM; notes: 7-mer, probes averaged, single round; reference: mean of 7-mers; reading: higher = stronger binding; endpoint: 7-mer Z-score
Target: PABPC1L2, full length, GST fusion (mouse, UniProt A0ABA7IW68)
Residues (chain): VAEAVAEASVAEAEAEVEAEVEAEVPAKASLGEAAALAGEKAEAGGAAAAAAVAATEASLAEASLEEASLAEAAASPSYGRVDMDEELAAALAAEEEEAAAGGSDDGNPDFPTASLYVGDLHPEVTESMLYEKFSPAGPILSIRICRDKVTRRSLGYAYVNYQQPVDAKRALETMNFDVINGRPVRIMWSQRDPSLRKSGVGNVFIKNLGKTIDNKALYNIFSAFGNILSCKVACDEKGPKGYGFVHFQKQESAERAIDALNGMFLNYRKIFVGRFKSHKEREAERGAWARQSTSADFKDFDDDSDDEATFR
CAACGGG: 0.253
UGGUCGC: -0.251
UUAUAAG: -0.0826
CGGGAAA: 0.715
UGGAAAU: 0.0497
CGAACCC: -0.179
CUAUCAU: -0.173
GAGAUCA: -0.18

Block 2 — method: protein-binding microarray; molecule type: hairpin DNA; matrix: in vitro; tested at: not given; reference: not given; reading: higher = stronger binding; endpoint: median fluorescence
Target: Runt-related transcription factor 3, Runt domain (RUNX3, Homo sapiens, UniProt Q13761, residues 53-186)
Sequence of UniProt Q13761 (53-186, looked up): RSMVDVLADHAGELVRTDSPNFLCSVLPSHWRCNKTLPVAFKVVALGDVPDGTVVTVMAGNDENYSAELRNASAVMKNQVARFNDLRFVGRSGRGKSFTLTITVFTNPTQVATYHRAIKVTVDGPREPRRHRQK
Notes: whole hairpin DNA, median over replicate spots
GAGGCCTGTCCGGGTTGGCCTCCTGGCCAACCCGGACAGGCCTCACACTC (5mC at 11): 4800 a.u.
GAGGCCTCGTGTGGTTGGCCTCCTGGCCAACCACACGAGGCCTCACACTC (5mC at 8): 5030 a.u.
CTCAGTTCTGTGGGCTGGACTCCTGTCCAGCCCACAGAACTGAGACACTC (5mC at 31): 3780 a.u.
GAGGCCTGTTGTGTTTGGCCTCCTGGCCAAACACAACAGGCCTCACACTC: 4320 a.u.
GAGGCCTGTCGCGGTTGGCCTCCTGGCCAACCGCGACAGGCCTCACACTC (5mC at 10 34): 7660 a.u.
CTCAGCGCTGTGGGCTGGACTCCTGTCCAGCCCACAGCGCTGAGACACTC: 4570 a.u.
GAGGCCTGTCGCGGTTGGGCTCCTGCCCAACCGCGACAGGCCTCACACTC (5mC at 26): 5670 a.u.
CTCAGTTCTGTAGGCTGGACTCCTGTCCAGCCTACAGAACTGAGACACTC: 4100 a.u.

Block 3 — method: universal PBM; molecule type: double-stranded DNA, one strand shown; matrix: in vitro; tested at: 600 nM; reading: higher = stronger binding; endpoint: E-score
Target: Sal-like protein 4, full length isoform A (SALL4, Homo sapiens, UniProt Q9UJQ4, residues 1-1053)
Sequence of UniProt Q9UJQ4 (whole entry, looked up): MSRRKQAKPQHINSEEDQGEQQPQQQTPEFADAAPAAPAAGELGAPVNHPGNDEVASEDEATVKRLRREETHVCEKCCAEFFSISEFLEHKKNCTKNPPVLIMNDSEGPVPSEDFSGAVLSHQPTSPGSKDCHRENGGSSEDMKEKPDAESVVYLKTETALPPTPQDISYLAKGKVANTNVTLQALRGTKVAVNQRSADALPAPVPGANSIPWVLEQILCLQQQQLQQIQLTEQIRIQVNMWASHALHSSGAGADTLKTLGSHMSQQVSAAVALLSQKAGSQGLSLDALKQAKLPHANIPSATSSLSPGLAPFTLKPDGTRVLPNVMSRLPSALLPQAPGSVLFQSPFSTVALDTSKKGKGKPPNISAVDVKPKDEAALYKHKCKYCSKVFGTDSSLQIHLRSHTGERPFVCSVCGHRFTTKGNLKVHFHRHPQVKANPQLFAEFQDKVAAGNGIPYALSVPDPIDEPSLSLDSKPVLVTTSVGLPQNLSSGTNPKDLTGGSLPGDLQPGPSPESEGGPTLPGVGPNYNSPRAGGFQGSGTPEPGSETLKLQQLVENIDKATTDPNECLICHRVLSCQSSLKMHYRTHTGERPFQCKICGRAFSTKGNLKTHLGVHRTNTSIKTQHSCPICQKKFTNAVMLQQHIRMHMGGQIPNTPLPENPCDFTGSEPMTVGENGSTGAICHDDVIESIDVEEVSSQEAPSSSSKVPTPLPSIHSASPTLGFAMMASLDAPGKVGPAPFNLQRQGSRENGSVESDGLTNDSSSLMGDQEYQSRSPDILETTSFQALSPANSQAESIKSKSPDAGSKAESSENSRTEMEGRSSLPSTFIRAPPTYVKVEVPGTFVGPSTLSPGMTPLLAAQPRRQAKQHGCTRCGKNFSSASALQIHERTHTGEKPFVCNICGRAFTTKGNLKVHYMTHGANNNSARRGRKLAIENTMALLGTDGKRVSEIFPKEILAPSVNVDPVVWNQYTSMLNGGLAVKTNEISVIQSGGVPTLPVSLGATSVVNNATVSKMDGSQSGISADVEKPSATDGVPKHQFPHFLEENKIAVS
Notes: 8-mer, flanks averaged, mean of replicates
CGAAAATA: 0.27
ACCCGTAT: -0.0607
TACGAGTA: 0.138
CCTGACCG: -0.214
ATGCCAAT: 0.121
CCTATTAA: 0.227
GGCCATAA: 0.0882
ATAAGCTA: 0.283

Further values, each from its own experiment
Nc1nc(Nc2ccc(S(N)(=O)=O)cc2)nn1C(=S)Nc1c(F)cccc1F
remaining activity (Dual specificity tyrosine-phosphorylation-regulated kinase 3 (DYRK3, Homo sapiens, UniProt O43781); enzyme activity, inhibitor; 0.5 µM; reference: control): 98.5%

A few entries again (block 2):
CTCAGTTCTGTGGGCTGGACTCCTGTCCAGCCCACAGAACTGAGACACTC (5mC at 31): 3780 a.u.
GAGGCCTGTTGTGTTTGGCCTCCTGGCCAAACACAACAGGCCTCACACTC: 4320 a.u.
GAGGCCTGTCGCGGTTGGCCTCCTGGCCAACCGCGACAGGCCTCACACTC (5mC at 10 34): 7660 a.u.
CTCAGCGCTGTGGGCTGGACTCCTGTCCAGCCCACAGCGCTGAGACACTC: 4570 a.u.
